Assay results gathered from unrelated publications.
Numbered parts are unrelated; each lists some results of a single study. Substitutions count along the parent as printed.

Set 1 — target: chymotrypsin; read-out: enzyme activity; mode: inhibitor; concentration: 10 µM; setting: with DTT
Structure (SMILES)	inhibition
N[C@@H](Cc1ccc(O)c(O)c1)C(=O)O	9.2%
CCN(CC)S(=O)(=O)c1cccc(-n2sc3ccccc3c2=O)c1	9.1%
O=C(NCCCNc1nc(Nc2cccc(NC(=O)N3CCCC3)c2)ncc1I)c1cccs1	21.2%
COc1ccc(C(=O)n2nc(-c3ccccc3)nc2N)cc1OC	60.9%
Sc1nnnn1-c1ccccc1	4.5%

Set 2 — target: tungstate, free oxyanion; method: microfluidic competitive inhibition; medium: in vitro, cell-free expressed; concentration: not given; reading: lower = stronger binding
Setting: derived from inhibition constants, unchanged parent 2230 nM
Starting sequence: PafA, mature enzyme, eGFP fusion (Elizabethkingia meningoseptica, UniProt Q9KJX5); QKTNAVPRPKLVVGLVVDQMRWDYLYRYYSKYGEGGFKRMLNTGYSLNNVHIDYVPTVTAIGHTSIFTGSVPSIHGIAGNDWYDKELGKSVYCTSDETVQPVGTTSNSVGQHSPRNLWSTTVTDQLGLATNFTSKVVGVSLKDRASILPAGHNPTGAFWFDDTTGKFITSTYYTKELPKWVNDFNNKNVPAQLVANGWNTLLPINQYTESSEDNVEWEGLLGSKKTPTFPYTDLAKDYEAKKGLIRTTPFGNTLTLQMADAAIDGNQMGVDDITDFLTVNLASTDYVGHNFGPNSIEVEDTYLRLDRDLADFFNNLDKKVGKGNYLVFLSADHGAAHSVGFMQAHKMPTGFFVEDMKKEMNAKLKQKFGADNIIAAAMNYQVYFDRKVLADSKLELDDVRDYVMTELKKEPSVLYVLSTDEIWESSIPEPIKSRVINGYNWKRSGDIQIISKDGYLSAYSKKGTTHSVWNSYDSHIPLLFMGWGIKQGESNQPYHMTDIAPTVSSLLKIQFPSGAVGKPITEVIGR
Variant	oxyanion analog dissociation constant
Y439G	1.23 µM
K236G	1.9 µM
F511V	2.28 µM
K179V	2.52 µM
N214G	2.05 µM
D264G	2.16 µM
L305V	2.82 µM
T57V	1.56 µM

Set 3 — target: CCND2, cyclin fold, Cln2 fusion (human); method: yeast growth competition, sequencing; medium: yeast; setting: weak parent motif; relative to: not given; reading: higher = stronger binding
Starting sequence: viral docking peptide; CKVKRKLFGSENI; partner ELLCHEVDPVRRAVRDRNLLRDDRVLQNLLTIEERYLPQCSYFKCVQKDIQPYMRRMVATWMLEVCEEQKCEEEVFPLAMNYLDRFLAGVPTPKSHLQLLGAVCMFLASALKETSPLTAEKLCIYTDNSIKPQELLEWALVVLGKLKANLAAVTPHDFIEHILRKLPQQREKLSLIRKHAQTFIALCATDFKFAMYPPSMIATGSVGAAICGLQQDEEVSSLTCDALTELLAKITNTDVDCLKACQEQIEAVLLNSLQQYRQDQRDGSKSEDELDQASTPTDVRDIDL
Variant	normalised enrichment score
CKVKAKLFGSENI [R5A]	-0.202
CKVKRKLFGAENI [S10A]	0.342
CKVKRKLFGSEAI [N12A]	0.345
CKVKRKAFGSENI [L7A]	0.146
CKVKKKLFGSENI [R5K]	-0.965

Set 4 — read-out: binding; method: radioligand binding; concentration: 10 µM
Target: Kappa-type opioid receptor (OPRK1, Homo sapiens, UniProt P41145)
UniProt P41145, sequence (whole entry, looked up): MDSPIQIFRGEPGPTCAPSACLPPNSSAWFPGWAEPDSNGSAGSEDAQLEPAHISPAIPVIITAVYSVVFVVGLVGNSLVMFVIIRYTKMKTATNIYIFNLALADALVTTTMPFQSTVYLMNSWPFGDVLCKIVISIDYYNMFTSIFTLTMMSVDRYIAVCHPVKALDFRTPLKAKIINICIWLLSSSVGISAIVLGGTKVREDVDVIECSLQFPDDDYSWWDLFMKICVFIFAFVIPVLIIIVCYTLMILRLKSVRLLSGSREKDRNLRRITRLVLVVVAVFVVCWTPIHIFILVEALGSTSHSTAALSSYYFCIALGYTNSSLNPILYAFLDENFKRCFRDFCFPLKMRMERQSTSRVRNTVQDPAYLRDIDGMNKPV
Compound	inhibition [%]
O=C(Nc1ccc(-n2nc(-c3cccnc3)cc2C(F)(F)F)cn1)c1ccc(-c2ccccc2)c(F)c1	13.8
CC(=O)N1CCC(c2ccc(C(=O)NC(=N)N)cc2C(F)(F)F)CC1	9.26
CS(=O)(=O)NCC[C@H](NC(=O)c1cncc2c1cnn2-c1ccc(F)cc1)c1ccnc(S(C)(=O)=O)c1	0.74
COCc1nc2cnc3cc(-c4c(C)noc4C)c(OC[C@H]4CCNC4)cc3c2n1[C@H](C)c1ccccc1	15.5
CN1C(=O)[C@@H](N2CCc3cn(Cc4ccccc4)nc3C2=O)COc2ccccc21	14.7
CN([C@@H]1CCc2c(CC(=O)O)c3cc(S(C)(=O)=O)ccc3n2C1)S(=O)(=O)c1ccc(F)cc1	-13.1
O=C([C@H]1C[C@H](O)CN1c1ccc(Cl)cc1)N1CC2COCC(C1)N2Cc1ccc(Cl)cc1	18.7
CN(C)C(=O)Cn1cc(-c2nc([C@@](C)(c3ccc(-c4cnc(N)nc4)cc3)C3CC3)no2)cn1	33.9
O=C1CCc2cc(Nc3cc(OC4CCOCC4)c([N+](=O)[O-])cc3Cl)ccc2N1	12.4
O=C(Nc1cccnn1)N1CCC(=Cc2cccc(Oc3ccc(C(F)(F)F)cn3)c2)CC1	30.5
C[C@@]1(Cc2ccc(C#N)cc2)C(=O)N(c2cc(Cl)cc(Cl)c2)c2ncc(C(=O)NC3(c4nc(C5CCC5)no4)CC3)n21	12.6
Cc1nc(C2CCN(C(=O)c3ccc(OC(F)(F)F)cc3N)CC2)c2ncc(N3CCN(C)CC3)cc2n1	21.2
COc1cc(-c2cn(C3CCc4ccccc4N(CC(F)(F)F)C3=O)nn2)ccc1-n1ccc(C)n1 (stereo not shown)	13.6
Cc1c[nH]c2nccc(Oc3c(F)cc(Nc4cc(Cl)nc(N)n4)cc3F)c12	64.6
CCOC(=O)c1cc2cc(-c3cc(C(=O)NCc4ccc(C(=O)O)cc4)nn3C)ccc2[nH]1	27.2
CC(C)(O)c1cncc(-c2nc3ccc(F)cc3n2C2CC2)c1	-8.65
